Published values gathered from unrelated publications.
Protocols differ between the studies behind these lines.
Cell line: MDA-MB-468

SMILES | test | setting | IC50 [µM]
Cc1ccnc(-c2cc(C(=O)O)ccn2)c1.F[P-](F)(F)(F)(F)F.F[P-](F)(F)(F)(F)F.[Ru+2].c1ccc(-c2ccccn2)nc1.c1ccc(-c2ccccn2)nc1 | cell viability | 48 h, dark | > 100
CC(C)NCCCn1c(Sc2cc(Cl)cc(Cl)c2)nc2c(N)nc(Cl)nc21 | cell growth or viability, resazurin | 72 h | 0.16
CC(C)=CC1OC(C)(C)C2C=C3C(=O)C(Cl)=CC(O)C3C3C(O)C4OC4C(=O)C132 (stereo not drawn) | cell growth or viability, MTS |  | 5.88
C/C=C/c1cc(Cl)cc(Sc2nc3c(N)ncnc3n2CCCNC(C)C)c1 | cell growth or viability, resazurin | 72 h | 0.23
O=C(c1ccccc1)N1CCN(CC(OCc2ccc3ccccc3c2)c2ccc(Cl)cc2Cl)CC1 (stereo not drawn) | cell growth or viability, MTT | 24 h | > 50
CC(C)(C)NCCCn1c(Sc2cc(Cl)cc(Cl)c2)nc2c(N)nc(F)nc21 | cell growth or viability, resazurin | 72 h | 0.05
CNS(=O)(=O)Nc1nccc(Cc2c(C)c3ccc(Oc4ncccc4F)cc3oc2=O)c1F | cell viability | 7 days | 0.638
Clc1ccc(COC(Cn2cnc3ccccc32)c2ccc(Cl)cc2Cl)cc1 (stereo not drawn) | cell growth or viability, MTT | 24 h | 48.7
Cc1cnc(Nc2ccc3c(c2)CCN(C(=O)/C=C/C(=O)c2ccc(Cl)cc2)C3)nc1-c1cnn(C(C)C)c1 | cell growth or viability, MTT | 48 h | 0.48
O=C(c1cccnc1)N1CCN(CC(OCc2ccc3ccccc3c2)c2ccc(Cl)cc2Cl)CC1 (stereo not drawn) | cell growth or viability, MTT | 24 h | 38.1
Cc1ccc([N+](=O)[O-])cc1S(=O)(=O)N(C)/N=C/c1cnc2ccc(Br)cn12 | cell growth or viability |  | 0.103
O=C(c1ccc(Cl)cc1Cl)N1CCN(CC(OCc2ccc3ccccc3c2)c2ccc(Cl)cc2Cl)CC1 (stereo not drawn) | cell growth or viability, MTT | 24 h | 38.4
CCOc1cncc(-c2ccc(NC(=O)C3(c4ccnc(NS(=O)(=O)C5CC5)n4)CCOCC3)nc2)n1 | cell growth or viability, ATP luminescence | 72 h | 1.94
CC(C)NCCCn1c(Sc2ccc(Cl)cc2I)nc2c(N)ncnc21 | cell growth or viability, resazurin | 72 h | 6.5
O=C(c1ccccc1Cl)N1CCN(CC(OCc2ccc3ccccc3c2)c2ccc(Cl)cc2Cl)CC1 (stereo not drawn) | cell growth or viability, MTT | 24 h | 46.9

For quick reference, copied from above:
SMILES | test | setting | IC50 [µM]
Cc1cnc(Nc2ccc3c(c2)CCN(C(=O)/C=C/C(=O)c2ccc(Cl)cc2)C3)nc1-c1cnn(C(C)C)c1 | cell growth or viability, MTT | 48 h | 0.48
O=C(c1cccnc1)N1CCN(CC(OCc2ccc3ccccc3c2)c2ccc(Cl)cc2Cl)CC1 (stereo not drawn) | cell growth or viability, MTT | 24 h | 38.1
